Experimental data gathered from unrelated publications.
Parts stem from different laboratories: compare values within a part only. Positions count from the first letter of the parent shown.

Set 1
Target: RING finger protein unkempt homolog, zinc fingers 1-6, GST-SBP tag (UNK, Homo sapiens, UniProt Q9C0B0, residues 30-357)
Sequence of UniProt Q9C0B0 (30-357, looked up): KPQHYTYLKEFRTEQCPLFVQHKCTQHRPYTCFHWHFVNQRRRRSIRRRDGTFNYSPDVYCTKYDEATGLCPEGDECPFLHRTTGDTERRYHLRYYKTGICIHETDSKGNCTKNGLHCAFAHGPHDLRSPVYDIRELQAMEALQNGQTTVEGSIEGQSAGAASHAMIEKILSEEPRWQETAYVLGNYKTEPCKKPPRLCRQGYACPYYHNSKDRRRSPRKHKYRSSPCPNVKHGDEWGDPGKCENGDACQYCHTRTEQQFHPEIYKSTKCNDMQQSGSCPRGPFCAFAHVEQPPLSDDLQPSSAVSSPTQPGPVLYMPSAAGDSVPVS
Method: RNA Bind-n-Seq
Molecule type: RNA
Matrix: in vitro
Tested at: not given
Notes: RNA with constant flanks, human-mouse chimeric sites, ends assumed
Reference: input RNA pool
Direction: higher = stronger binding
Shared flanks, not repeated: GGGAGUUCUACAGUCCGACGAUC … CAACAGAGGAUUGAGCAUCA
Sequence	bound/input enrichment
ACAGUUAUAUUGUUGAGUUUCAUUUUCAUAUAUUCUUAUGGUGUCUGCUUGCCUGUGACUUCUGGUAAAAUAAAAUAAGCCUUUGAAAAUAUUUUAGCAUGGUAUUUAACAUUUUCUAAA	1.25 ratio
CUGUGACUGAUGGCAGCUACCUGAGUGGCAGCUGAAGUUGACUCCCUCUCCUUGCCUGAACCCCCCCCUUUUGUUCCCCCAUCCCCCAGUGUCGGCUGAGAUGUUGCCUCUGCACGGUUC	0.962 ratio
UUGAAAACUGAUUCAAGUAAGUUUGAGUAUCACAAUGUUAGCUUUCUAAUUCCACACAAGUACUUGGUUUUUACAGUAACCCCACAUACAUCACCCCAGCGCCAUUUGUAAAGAGCAACU	1.08 ratio
GCUCUUGGGAAUGUAAUCAGCGCCUUGGGAGACAAGAGCAAGAGAGCCACCCAUGUCCCUUACAGAGACUCUAAGCUGACAAGACUCUUGCAGGAUUCCCUUGGGGGUAAUAGCCAAACC	0.167 ratio
AUGGUUGUGUCUCUUGAGAUCUAAAAACAAGAUGACUUUUCCUGGCACAUAUUCCAAAGCAAAGACUUUGUUGCCUGCUGCUUAUUGUCUAAUUUACAGGGAUAUUUAAUUUUGUAAGGU	0.293 ratio
UCUUAACUUAUUCAUUUAACUUAUUUUUAUAGCUAGAGCAAUAUUGUUAGUCUUAGACAAUAGCUCACAUUUUUUGAGAAGCAUGCCCUCCCUGUCCAUUUGUCUUAUAACAUGACCCAG	114 ratio

Set 2
Target: ABI1, truncated, D143A, DHFR fusion (Arabidopsis thaliana)
Method: DHFR PCA, deep sequencing
Matrix: yeast
Notes: methotrexate growth selection, single substitutions
Added: (+)-ABA 1.4 µM
Reference: wild-type fitted maximum
Direction: higher = stronger binding
Parent: PYL1, truncated, DHFR fusion (Arabidopsis thaliana); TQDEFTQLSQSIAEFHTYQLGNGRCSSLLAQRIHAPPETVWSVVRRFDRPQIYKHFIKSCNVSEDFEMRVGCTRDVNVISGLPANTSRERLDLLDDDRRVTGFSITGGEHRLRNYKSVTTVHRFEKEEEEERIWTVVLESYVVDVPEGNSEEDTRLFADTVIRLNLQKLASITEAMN; partner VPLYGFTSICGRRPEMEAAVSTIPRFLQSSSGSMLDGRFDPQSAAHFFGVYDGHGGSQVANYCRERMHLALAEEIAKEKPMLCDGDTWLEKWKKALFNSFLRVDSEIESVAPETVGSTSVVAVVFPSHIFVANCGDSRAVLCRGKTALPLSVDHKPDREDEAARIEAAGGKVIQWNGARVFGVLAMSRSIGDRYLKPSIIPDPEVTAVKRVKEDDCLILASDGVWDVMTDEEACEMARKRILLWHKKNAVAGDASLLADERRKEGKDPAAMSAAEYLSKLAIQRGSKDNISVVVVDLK
Variant	relative binding score
Q2Y	64%
E109S	41.9%
K168I	8.23%
V44N	-19.6%
L8A	13.7%
K126E	68.8%
S9D	47%
V142F	-7.15%
E128Y	45.2%
C72Y	26.3%
P50S	-0.97%
V70S	1.47%
T73F	69.3%
R113P	44%
D92S	-0.434%
E174L	-5.96%

Set 3
Target: RNA binding protein fox-1 homolog 2, RRM domain, GST-SBP tag (RBFOX2, Homo sapiens, UniProt O43251-10, residues 100-194)
Method: RNA Bind-n-Seq
Molecule type: RNA
Matrix: in vitro
Tested at: 365 nM
Notes: natural RNA segment, single round, ends assumed
Reference: no-protein control
Direction: higher = stronger binding
Shared flanks, not repeated: GGGAGUUCUACAGUCCGACGAUC … UGGAAUUCUCGGGUGCCAA
Target sequence (chain): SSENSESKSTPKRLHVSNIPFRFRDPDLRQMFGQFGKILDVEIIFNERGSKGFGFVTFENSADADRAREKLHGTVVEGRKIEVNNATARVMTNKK
Sequence	RBNS enrichment (R)
AAAUUCCCUGAGGCAAAACUCACUGGCCAAAUUUUGAGAGGGUAUAGAAAAUGACUUUAGAGAUGAGUGGUUUUGUGUAUGUGUCUGAUGAUAUUCAGUCUGAUGUUCCG	0.368
CUCCUCAAACAUCUUUGGAGGAACUACCUGGCCAAAACACUGGCCAGGAUGCAGCAAGCAGCAGCAGGGGCUGACAGCAGGCUUACUGCCAUCAACAUUGCUUGAAAUGC	0.276
UUGUUAAAUGUAAGGAAAGCUUAAAUUCUUGUAUCUUUAAAAGAGAAAAUCUUAUUUAACCCUUUUGUGUUCUAGAUUUACUUACACACAUAGCCUAGAGCUCAGUUUUA	0.339
UGGGCAGCCACUCCCCGAGAUGUUGCCAUCAGUUUUCUGCAGUCCAAAGAGGGUAUGGUUAGGUACGGGUCUUCCUGCCUCAUUCCUCUUCCUCUUUGUGUAGGUUUCAG	0.236
GGCUGAACCUGAGAUCUUGGAACUUGAGAGUAAGAGCAAUAAGAUUGUCCAGAGUGUCAUCCAGACAGCCGUCGACCAGUUUGCACGUACAGAAACAGCCCCCGAAACCC	4.54
GCCCAGGGUCGGAGCCCAGGGCCUCUCCCUUCCUGUCGUUCAAUGGACGUGGUGGUGGCUGUUCCACACCCAUUUUGUUGCAGUUCCUGUGAGACAGGAGAGGCUGAGCC	0.535
CUACCAUUUAUAAGGAGUUUGAAAAGAGGAAGAUGCUUGAAGGACACAACAAGAAAUUCUUUAAAGCUGUGGAAGAAAUCUAGACGUGAGGGCCAGUCCAGGCUGUCAGC	0.592
UGGAUAUUCUUGAUUCUUAGUUCAAAAAAGUUAUUUUGUCAAUAAAACAUGCUUAAAGGAGUAACUAGGAGGGUAAAGCAGUUACAGCUUAGUGAUACAAAUACAUUUCU	0.634

Set 4
Target: CCNB3, cyclin fold, Cln2 fusion (human)
Method: yeast growth competition, sequencing
Matrix: yeast
Notes: weak parent motif
Reference: not given
Direction: higher = stronger binding
Parent: E2F1 docking peptide (human); PPVKRRLDLETDH; partner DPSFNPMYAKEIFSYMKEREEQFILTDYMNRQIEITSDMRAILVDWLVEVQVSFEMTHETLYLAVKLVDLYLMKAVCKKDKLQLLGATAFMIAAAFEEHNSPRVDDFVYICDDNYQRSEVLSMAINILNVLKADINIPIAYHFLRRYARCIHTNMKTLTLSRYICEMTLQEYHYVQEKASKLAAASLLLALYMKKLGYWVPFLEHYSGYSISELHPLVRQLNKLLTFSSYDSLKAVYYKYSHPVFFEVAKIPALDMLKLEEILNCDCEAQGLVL
Variant	normalised enrichment score
R6P	0.0181
R5C	0.249
K4Q	0.447
V3D	0.0397
R6I	0.411
E10N	0.607
H13I	0.696
R6F	-0.172
E10I	0.659
E10Q	0.365
P1I	0.313
R6G	0.158
D12F	0.846
K4L	0.504
